Measured values from different studies.
Protocols differ between the studies behind these lines.

Cc1[nH]nc2c1N=C(c1ccccc1Cl)c1cnc(N3CCOCC3)cc1N2  clearance (male Sprague-Dawley rat, plasma; intravenous, 1 mg/kg): 16.5 mL/min/kg
COCCN(C)CC(=O)NC(Cc1ccc(-c2ccccc2)cc1)B(O)O (stereo not drawn)  clearance (rat, plasma; intravenous, 1 mg/kg): 13.7 mL/min/kg
CCC1(CC)CC(=O)N(C2c3cc(C(=O)NC4c5ccccc5CC4O)ccc3OC2(C)COC)C(=N)N1 (stereo not drawn)  clearance (male Wistar rat, plasma; intravenous): 60.4 mL/min/kg
Cc1cccc(Cn2ncc3c4cc(F)c(CN(C)C)cc4n(C)c3c2=O)n1  CL/F (Sprague-Dawley rat, plasma; oral, 10 mg/kg): 57.4 mL/min/kg
C[C@@H](CO)NC(=O)c1cc(-c2ccc(Cl)cc2)nn(-c2cnn(C)c2)c1=O  clearance (male Wistar rat, blood; intravenous): 3 mL/min/kg
OCC1OC(n2cnc3c(NCc4ccc(Br)s4)ncnc32)C(O)C1O (stereo not drawn)  clearance (male Sprague-Dawley rat, blood; intravenous, 6 mg/kg): 9 mL/min
COC1C(c2ccc(Cl)c(Cc3ccc(OC4CCOC4)cc3)c2)OC(CO)C(O)C1O (stereo not drawn)  clearance (Sprague-Dawley rat, plasma; intravenous, 2.5 mg/kg): 10.4 mL/min/kg
C/C(N)=N/C(=N\S(=O)(=O)c1ccc(C(F)(F)F)cc1)N1C[C@H](c2ccccc2)C(c2ccc(Cl)cc2)=N1  clearance (male Sprague-Dawley rat, plasma; intravenous, 2 mg/kg): 12.1 mL/min/kg
N#Cc1ccnc(N2C(=O)CC[C@H]2C(=O)N(c2cncc(F)c2)[C@H](C(=O)NC2CC(F)(F)C2)c2ccccc2Cl)c1  clearance (Sprague-Dawley rat, plasma; intravenous, 1 mg/kg): 3.33 mL/min/kg
C=C(NC(=O)c1csc(-c2nc3c(cc2O)-c2nc(cs2)C(=O)NC(C(C)O)C(=O)NC(=C(C)OC)c2nc(cs2)C(=O)NC2c4nc(cs4)C(=O)NC(COC(=O)c4c5c6c(cccc6n4O)COC(=O)C(OC4CC(C)(O)C(N(C)C)C(C)O4)C2OC5)c2nc-3cs2)n1)C(N)=O (stereo not drawn)  clearance (Sprague-Dawley rat, plasma; intravenous, infusion): 48 mL/min/kg
CCC(CC)n1c(Cc2ccco2)nc2cc(C(=O)N[C@@H](CC(=O)O)c3ccccc3)ccc21  clearance (male Sprague-Dawley rat, plasma; intravenous, 1 mg/kg): 20.8 mL/min/kg
COc1cc(OC)c2c(=O)cc(-c3cc(C)c(OCCCN4CCN(C)CC4)c(C)c3)oc2c1  clearance (male Sprague-Dawley rat, plasma; intravenous, 10 mg/kg, single dose): 38.3 mL/min/kg

Some of these lines once more:
CCC1(CC)CC(=O)N(C2c3cc(C(=O)NC4c5ccccc5CC4O)ccc3OC2(C)COC)C(=N)N1 (stereo not drawn)  clearance (male Wistar rat, plasma; intravenous): 60.4 mL/min/kg
